# Published values pooled from the literature.
# “And” joins repeats or separate records; there may be more than shown.
# Organism: Staphylococcus aureus
Structure (SMILES),assay,system,setting,how to read,quantity,result
N=C(N)NCCC[C@H](NC(=O)[C@H](Cc1c[nH]c2ccccc12)NC(=O)[C@H](CCCNC(=N)N)NC(=O)[C@H](CCCNC(=N)N)NC(=O)[C@@H]1CCCN1C(=O)[C@H](CCCCN)NC(=O)[C@@H](N)CCCNC(=N)N)C(=O)N[C@@H](Cc1c[nH]c2ccccc12)C(=O)N[C@@H](Cc1c[nH]c2ccccc12)C(=O)N1CCC[C@H]1C(=O)N[C@@H](CCCCN)C(=O)N[C@@H](CCCNC(=N)N)C(=O)N1CCC[C@H]1C(=O)O,,"09057, female BALB/c mice, sepsis, liver","intraperitoneal, 20 mg/kg",,log bacterial load,5.12 log(CFU/g) and 4.79 log(CFU/g) and 5.25 log(CFU/g) and 5.4 log(CFU/g) and 5.06 log(CFU/g)
CC1=C[C@@H](C)[C@H]2[C@@H]3C(=O)C(Cl)(Cl)C(=O)[C@H](C)C(=O)O[C@@H](C)/C=C/C=C\[C@@H](C)[C@@H]3C=C[C@@H]2C1,,Newman compound-resistant mutant Mt6,concentration not given,reference: parent strain,MIC fold change,8
CC[C@H](C)[C@@H]1NC(=O)[C@@H]([C@@H](C)O)NC(=O)CNC(=O)[C@H](CC(=O)O)NC(=O)CNC(=O)[C@H](CC(=O)O)NC(=O)CNC(=O)[C@H]2CCCCN2C(=O)[C@@H](NC(=O)[C@H](CC(=O)O)NC(=O)/C=C/CCCCCCCCCC(C)C)CNC(=O)[C@@H]2CCCN2C1=O,broth microdilution,"BR-VRSA strain 880, Mueller-Hinton broth, Mg2+ 10 mg/L","16 h, added: Ca2+ 0 mM",,MIC,> 128 µg/mL
CCCCCCCCCCCCCC(=O)N[C@H]1C(=O)N[C@@H](CN)C(=O)N[C@@H](CO)C(=O)N[C@@H](Cc2ccc(O)cc2)C(=O)O[C@H]1C,,SH1000,"added: phosphatidylglycerol, molar ratio 2",,MIC,16 µg/mL
c1ccc(CCNC2CCCc3c2[nH]c2ccc(C4CCCCC4)cc32)cc1 (centres unmarked),broth microdilution,SG511,,,MIC,2 µg/mL
OB(O)c1ccc(C(F)(F)F)s1,,"wild type, Galleria mellonella larvae",concentration not given,,time of death,36 h and 6 h and 12 h and 30 h and 18 h and 24 h
CC(C)CCCCCCCCC/C=C/C(=O)N[C@@H](CC(=O)O)C(=O)N[C@H]1CNC(=O)[C@@H]2CCCN2C(=O)[C@H](C(C)C)NC(=O)[C@@H](CN)NC(=O)CNC(=O)[C@H](CC(=O)O)NC(=O)CNC(=O)[C@H](CC(=O)O)NC(=O)[C@H](CC(=O)O)NC(=O)[C@H]2CCCCN2C1=O,broth microdilution,"BR-VRSA strain 880, Mueller-Hinton broth, Mg2+ 10 mg/L","16 h, added: Ca2+ 0 mM",,MIC,> 128 µg/mL
C=C(NC(=O)c1csc(-c2nc3c(cc2O)-c2nc(cs2)C(=O)NC(C(C)O)C(=O)NC(=C(C)OC)c2nc(cs2)C(=O)NC2c4nc(cs4)C(=O)NC(COC(=O)c4c5c6c(cccc6n4O)COC(=O)C(OC4CC(C)(O)C(N(C)C)C(C)O4)C2OC5)c2nc-3cs2)n1)C(N)=O (centres unmarked),,MRSA strain 2,,,MIC,0.0156 µg/mL

# Repeated from above:
Structure (SMILES),assay,system,setting,how to read,quantity,result
c1ccc(CCNC2CCCc3c2[nH]c2ccc(C4CCCCC4)cc32)cc1 (centres unmarked),broth microdilution,SG511,,,MIC,2 µg/mL
